Experimental data from different studies.
A part holds a random share of what one study measured.

Block 1 — technique: RNA Bind-n-Seq; form: RNA; medium: in vitro; concentration: 365 nM; baseline: no-protein control; direction: higher = stronger binding
Target: RNA binding protein fox-1 homolog 2, RRM domain, GST-SBP tag (RBFOX2, Homo sapiens, UniProt O43251-10, residues 100-194)
Notes: natural RNA segment, single round, ends assumed
Target sequence (chain): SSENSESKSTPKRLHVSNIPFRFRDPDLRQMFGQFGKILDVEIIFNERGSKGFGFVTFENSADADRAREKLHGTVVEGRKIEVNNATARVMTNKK
| Sequence | RBNS enrichment (R) |
| --- | --- |
| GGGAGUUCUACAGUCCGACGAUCCGUUUGUCGAAGCCUCCUCUGAAUGGCUUUGUGAAAUCAAGAUGUUUUAAUCACAUUCACUUUACUUGAAAUUAUGUUGUUACACAACAAAUUGUGGGGCCUUCAAAUUGUGGAAUUCUCGGGUGCCAA | 0.275 |
| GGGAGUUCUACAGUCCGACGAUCUGUUCAGGGGCAGUGGGGGGCUCCAGGCACGGUCAAUGAAGGAAACAGUGCCUGUCCACCCACCCUGCGUGUCACUGUGGCGGCCUGGCUGUCGCUGCUUUUUGUCCUCUUGGAAUUCUCGGGUGCCAA | 0.391 |
| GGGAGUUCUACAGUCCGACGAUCAAAAAAGAAAAGGAAAAACCCCGUGCUCGCCCCCUUCCUCCUGCCGUCCACUGCGCGGCCUCGUCAGUCCCGGGGCUGACUGUCCCUCUCAGCUCUGCGCCUGCCAGGCAUGGAAUUCUCGGGUGCCAA | 0.741 |
| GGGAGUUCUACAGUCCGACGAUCCCCAUGAAGGAAAAAUUAGAGUUACUUUUCUCAUUUUGUGCAUUGAUAUAUUUUUACAAUCCUGCAAACUUCCUUGAGUCACUCACGACUCCCCCUGAGGUCACUUCCUGUGGAAUUCUCGGGUGCCAA | 0.333 |
| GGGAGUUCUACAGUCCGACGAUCCUAGAUUCAGCAAUGAAAAUCCACAAAGAUUCAGGAAAACUUUAGCUACAAAUACCUUAAAAAUGAUAGAUUGAUGAUUUCCUUAAUUCCUAGAAUUUCUUUUAUAAAUGUGGAAUUCUCGGGUGCCAA | 0.374 |
| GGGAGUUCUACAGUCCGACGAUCCAAACCAAAUAACAUCUUUCAGUAAUUAUAGAAUGAUUUAUUUGGAAUAAAAUUUGUGCUUAUGAAUUAUAAAGGUCUAUAGCUUGGUGUACGGUCUUUCUACAGUAAGUUGGAAUUCUCGGGUGCCAA | 0.723 |
| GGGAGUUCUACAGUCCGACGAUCCCUCCGUUGUAAUUAAUGAAACUAUUUUCUUUAAAGUGUUUCUAUGUUAAAAUAGCAUACUGUGUAUGUUUUAUCCAAAUUCAUUCAUGAAUCUUUCAUAUAUAUAUGCAUGGAAUUCUCGGGUGCCAA | 0.614 |
| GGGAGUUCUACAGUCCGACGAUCAAAUCAUUCAGUAAACAUGAGACAAGUUUAGGAAAAACUAAUAAAAUAAACCUGUCUUAAACUUGAAUGGUUUCCUUAAUUCCAUAAUGAAGGCUGCUGGGUGUGUGUGUUGGAAUUCUCGGGUGCCAA | 0.639 |
| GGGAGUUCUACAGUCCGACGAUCUGUUUCCAGCUCGUCCACAAGCUCAUCGAUUUUCUUUAGUAGAUUACCGGUGUAAAUACCCAGUGUGCUUAUGAGUCAGUUAGUAGACGUCUUCAUUCAUUGGAGUAACUUGGAAUUCUCGGGUGCCAA | 0.243 |
| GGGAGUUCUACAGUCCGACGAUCUCCCAUCCCACCCUGUUCUUUCCAUAGAACUUUUGAUAUCAGGCAAACGGUUUCCUUUUUGAGAUAUUUUAACAGAGAAGGGGUGGGGGAGAAGCAGAUGAAGCUGUACUUGGAAUUCUCGGGUGCCAA | 0.352 |
| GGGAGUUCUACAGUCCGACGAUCUUUAUACUGAAUUGUCAUCAAUCAGUCCUACCAGAUGGAUUUCAACAUUUAAACCUGGAGACUCUUCGUGUCUUGAAUUAGGAUGUUUGUCCAGUAAUAAAAUAUAGAACUGGAAUUCUCGGGUGCCAA | 0.803 |
| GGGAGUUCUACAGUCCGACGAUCAGAGAAUGGGAGGAGGGUCAUGUUGAAGUGUAGCCACUGGAACUUUCUUGCAUUUAUGGAGUUGCUUUUUCUUUCCCAAGGAAACUGAUGUUUGCCUGUCCGCUUUAUCUUGGAAUUCUCGGGUGCCAA | 6.21 |

Block 2 — technique: RNA Bind-n-Seq; form: RNA; medium: in vitro; concentration: not given; notes: RNA with constant flanks, ends assumed; baseline: input RNA pool; direction: higher = stronger binding
Target: RING finger protein unkempt homolog, zinc fingers 1-6, GST-SBP tag (UNK, Homo sapiens, UniProt Q9C0B0, residues 30-357)
Chain of UniProt Q9C0B0 (30-357, looked up): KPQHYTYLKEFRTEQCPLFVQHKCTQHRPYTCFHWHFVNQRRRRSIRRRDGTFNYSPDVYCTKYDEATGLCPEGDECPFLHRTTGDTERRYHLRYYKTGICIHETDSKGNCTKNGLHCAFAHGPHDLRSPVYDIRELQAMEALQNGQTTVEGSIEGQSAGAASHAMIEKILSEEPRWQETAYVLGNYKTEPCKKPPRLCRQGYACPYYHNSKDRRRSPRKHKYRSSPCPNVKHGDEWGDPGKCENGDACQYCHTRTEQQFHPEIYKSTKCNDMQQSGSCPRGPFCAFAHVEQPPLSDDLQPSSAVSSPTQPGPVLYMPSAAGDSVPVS
| Sequence | bound/input enrichment |
| --- | --- |
| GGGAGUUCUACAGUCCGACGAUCUUGCCACCGUCCGCCAAAAAGUCAGGCCAGAAACCUGUGCUUUCAGAUGUUCACGCAGAGCCCGACAGAAUCACACGGAAACCUGCUUCUGUUUCUCCUACAACACCUACAUCUCCUACGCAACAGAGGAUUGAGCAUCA | 0.193 ratio |
| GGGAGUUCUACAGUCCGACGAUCGGCUUCUCCAACUGUAGAGGUACAGAUUGUCUUAACCUGUUCUUUUCUGUACAGACUUAAAAUUUCCCGUGGCUUUUAUUUUUCUUUGUAUUUUAAUUUUCCUACAAAGUCCUUUUUGGACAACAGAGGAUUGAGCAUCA | 1.88 ratio |
| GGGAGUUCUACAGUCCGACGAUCUUUUCUGUAUUAAGCAAAUUCUAAUUUUUAUAUGUGGUUUUUGACUGUGGGGGUUGUCUCUACCGUUUGUCUUACUGUUGAAAUGACAUGGUUAUCCAAAGCCUCUAGUGUCCGUCAGGUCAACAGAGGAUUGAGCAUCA | 1.1 ratio |
| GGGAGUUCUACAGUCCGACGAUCCGAGUAGUUGGCAAAGAGCAGGGCCAGAAUUUAGCAAGACAGUGGUGUAACUGUGCCUUUUCCGAAUCUUCUGCAAAGUCAAAGAUCAAUGUUAAUGAGAUAUUUUAUGACCUGGUCAGACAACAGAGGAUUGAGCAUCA | 0.694 ratio |
| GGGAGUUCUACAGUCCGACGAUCACCCUGGACUGUGAGCCCAAGUGUGUGGAAGAGUUACCUGAGUGGAACUUUGAUGGCUCCCGUACCUUUCAGUCUGAAGGCUCCAACAGCGACAUGUACCUCCAUCCUGUUGCCAUGUUUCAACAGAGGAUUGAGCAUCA | 0.215 ratio |
| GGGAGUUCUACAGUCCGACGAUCGCACUUCUCAAAUACUGGCCAAAGACUCACAGUCCAAAAGAAGUAAUGUUCUUAAACGAAUCCGAAGAGAUUUUAGAUGUCAUUGAACCAUCAGAAUUUGUGAAGAUCAUGGAACCCCUCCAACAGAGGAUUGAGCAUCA | 0.175 ratio |
| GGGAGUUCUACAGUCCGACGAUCCUUAGUCGUGUCACUCUUCUUGAAACAGAAAUGCUUUUGUCUAAAAAGAAUGAUGAAUUUACCGAGUUUAAUGAAGUUAGUGAAGACUACGCUUCUUGUAGUGACAUGGACCUUCUGAAUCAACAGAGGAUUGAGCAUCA | 0.17 ratio |
| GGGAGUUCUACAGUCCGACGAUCAUCACAGACAUCAUAAGUGGCCUUGGCAGUAACAAGUGGAUCCAGCAAAAUCUUCAGUGCUCCGUACUAAACUCAUUAACUCUGUCCCUCGAGGAUCCAUAUGAGCGGUGCUUCAGCCGGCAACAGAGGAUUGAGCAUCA | 0.139 ratio |
| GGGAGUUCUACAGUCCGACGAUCAGCAAAACCAGAGCAUCCUUAAAGUGCAGGAAGUCUUUGCCGUCGUUGUUAAGCAUGUGUUUCCGUCAGGUCAGAAACAUCAGGUACCACAGCUCCCCAGCACUCUCUUGAGGCUAGAAACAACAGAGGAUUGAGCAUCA | 0.119 ratio |
| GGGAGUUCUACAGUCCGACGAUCUUACACAUUUGGUGAGCAGGGCAGCAUUUCCUUCUCCCACUGCUGCUGAGAUGGCAGAAAUCCGUCGAAUUCAGUACGAAAUGGAAUAUACUGAAGGCAUUAGUCAGCGAAUGAGGGUCCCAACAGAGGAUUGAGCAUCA | 0.293 ratio |
| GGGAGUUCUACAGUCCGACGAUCUUAAGGGAAAUUUUUGAGGCAAAAGGCAAAUGUUUUGGUUCAAACCUAUGAGCAAAGUCAUUCCGAGAAUUGAAGAUAGUAUUAAAACCUUGAGACUCUUGCAAUAAAAAUAUCAGACCACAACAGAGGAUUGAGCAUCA | 0.322 ratio |

Block 3 — technique: RNA Bind-n-Seq; form: RNA; medium: in vitro; concentration: 200 nM; notes: whole 134-nt RNA, ends assumed; with: 150 mM KCl; baseline: input library; direction: higher = stronger binding
Target: Fragile X messenger ribonucleoprotein 1, C-terminal low-complexity region (Fmr1, Mus musculus, UniProt P35922)
| Sequence | log2 enrichment |
| --- | --- |
| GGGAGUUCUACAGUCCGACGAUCCUGUGCUACACAUCGUAUGUACCGAAUCGGGGAAAAAAAGGAAAAAAAGGGGAAAAAAAGGGAAAGUAUUAUGUUACGCCGUUCGGAUCUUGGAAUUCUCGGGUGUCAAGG | -0.281 |
| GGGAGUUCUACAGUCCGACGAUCGUCCUGUGCUACACAUCGUAUGUACCGAAUCGGGGAAAAAGGAAAAAGGGAAAAAGGGAAAGUAUUAUGUUACGCCGUUCGGAUCUGCACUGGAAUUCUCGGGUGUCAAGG | -0.435 |
| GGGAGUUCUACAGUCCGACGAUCGUCCUGUGCUACACAUCGUAUGUACCGAAUCGGAAAAAAAGGAAAAAGGUUUUUUUGGAAAGUAUUAUGUUACGCCGUUCGGAUCUGCACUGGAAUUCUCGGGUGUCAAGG | -1.17 |
| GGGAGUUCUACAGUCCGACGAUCGCAGGAAGUAAAAACAAAAAAAAAUGCUUCGGAUAGUGGCAGGGGUGGGGGUUGCUAAGGAAAGGGUGGGAUGGGAGUGGGUAAAGAGUUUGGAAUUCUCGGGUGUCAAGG | 0.346 |
| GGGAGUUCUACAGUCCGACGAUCCACAGACAACACGCACCCACACAGACACAGAGGGAAGGGGUUGGGAUGGGGACAGGGUGCACAGCAGGGCGAAAUAGGACCCCAGCCCCUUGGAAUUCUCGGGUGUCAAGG | 1.07 |
| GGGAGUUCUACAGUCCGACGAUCGUCCUGUGCUACACAUCGUAUGUACCGAAUCAAAUUUUUAAACCCAAAUUUUUUUAAAAAAGUAUUAUGUUACGCCGUUCGGAUCUGCACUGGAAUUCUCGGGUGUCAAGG | -0.119 |
| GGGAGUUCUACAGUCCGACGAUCUCAAGUCCUGUGCUACACAUCGUAUGUACCGAAUCGGUUUUUGGAAAGGAAAGGAAAGUAUUAUGUUACGCCGUUCGGAUCUGCACUUCCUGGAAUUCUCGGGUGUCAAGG | -0.54 |
| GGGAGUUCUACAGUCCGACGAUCUACCAAUUGGCCUUUAUUGACUGUAUCCAAAGGAUUUUUUGAAGGCACCAUUGCCAGCAAAGGUAAGUACCUAUUUCUCCCAUAGCACUUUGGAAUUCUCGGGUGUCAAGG | -0.602 |
| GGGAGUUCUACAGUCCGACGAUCCACAGAAAACACGCACCCACACAGACACAGAGGGAAGGGGUUGGGAUGGGGACAGGGUGCACAGCAGGGCGGGGUAGGACCCCAGCCCCUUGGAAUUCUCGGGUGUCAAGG | 1.21 |
| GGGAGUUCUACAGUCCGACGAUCCCUGUGCUACACAUCGUAUGUACCGAAUCGGGUUUUUUUGGGUUUUUUUGGGUUUUUUUGGAAAGUAUUAUGUUACGCCGUUCGGAUCUGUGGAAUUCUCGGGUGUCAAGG | -0.564 |

Block 4 — technique: protein binding microarray; form: double-stranded DNA, one strand shown; medium: in vitro; concentration: not given; baseline: not given; direction: higher = stronger binding
Target: Histone acetyltransferase KAT6A, winged helix 1, GST fusion (KAT6A, Homo sapiens, UniProt Q92794, residues 1-85)
Notes: 8-mer, flanks averaged, mean of 2 arrays, mostly near background
Target sequence (chain): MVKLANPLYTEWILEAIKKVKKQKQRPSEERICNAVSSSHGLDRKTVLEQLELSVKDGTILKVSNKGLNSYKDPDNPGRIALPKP
| Sequence | E-score |
| --- | --- |
| CTCACAAG | -0.211 |
| CGCATCCG | 0.353 |
| GATACTGA | 0.0419 |
| AAGTCCGA | 0.0116 |
| TACTGAGA | -0.0522 |
| ACGATCTA | -0.27 |
| CCACTATA | -0.251 |
| AACAGCAA | -0.206 |
| ATCCCCTG | -0.198 |
| CGCGCCTA | 0.38 |
| GAATACCC | -0.0148 |
| AGGCTATA | -0.101 |
| ACAGAATG | -0.104 |
| ACGAAATG | -0.219 |
| AGGCTCAA | -0.2 |
| AGACATTA | -0.0429 |
| GATACAAA | -0.0427 |
| GTATGAGA | -0.0889 |
| CTCCGAAG | -0.0349 |
| ACGGGTGG | 0.293 |
| AATATAGT | -0.0286 |
| AAACACCC | -0.0354 |
| AGACAGCT | -0.23 |
| ATACACGC | 0.236 |
| AGAAGTGG | -0.144 |

For quick reference, copied from above (block 4):
| Sequence | E-score |
| --- | --- |
| CGCGCCTA | 0.38 |
| GAATACCC | -0.0148 |
| AGGCTATA | -0.101 |
| ACAGAATG | -0.104 |
| ACGAAATG | -0.219 |
| AGGCTCAA | -0.2 |
